{"data": "Assay results collected from several papers", "note": "A part holds a random share of what one study measured. Substitutions count along the parent as printed."}
{"data": "Series 1", "target": "Ras GTPase-activating protein-binding protein 1, full length (G3BP1, Homo sapiens, UniProt Q13283)", "method": "RNA Bind-n-Seq", "molecule type": "RNA", "sample": "in vitro", "tested at": "200 nM", "setting": "whole 134-nt RNA, ends assumed", "together with": "150 mM KCl", "baseline": "input library", "reading": "higher = stronger binding", "sequence of UniProt Q13283 (whole entry, looked up)": "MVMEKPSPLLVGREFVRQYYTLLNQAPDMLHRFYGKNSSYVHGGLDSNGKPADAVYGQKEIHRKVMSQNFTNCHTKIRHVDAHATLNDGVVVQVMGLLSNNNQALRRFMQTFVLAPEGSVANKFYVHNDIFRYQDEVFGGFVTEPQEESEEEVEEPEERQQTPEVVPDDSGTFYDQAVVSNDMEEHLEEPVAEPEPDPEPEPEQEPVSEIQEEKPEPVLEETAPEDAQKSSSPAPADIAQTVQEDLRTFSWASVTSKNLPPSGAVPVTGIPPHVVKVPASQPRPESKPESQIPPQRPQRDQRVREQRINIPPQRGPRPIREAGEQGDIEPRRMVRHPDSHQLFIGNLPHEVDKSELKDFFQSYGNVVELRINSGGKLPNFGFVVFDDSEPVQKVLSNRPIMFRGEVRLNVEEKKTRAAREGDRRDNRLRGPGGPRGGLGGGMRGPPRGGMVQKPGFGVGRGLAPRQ"}
{"Oligonucleotide": "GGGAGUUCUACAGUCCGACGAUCCAAGUCCUGUGCUACACAUCGUAUGUACCGAAUCGGGAAGGGGAAGGGGAAGGGGAAAGUAUUAUGUUACGCCGUUCGGAUCUGCACUUCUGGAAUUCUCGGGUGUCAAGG", "log2 enrichment": 1.07}
{"Oligonucleotide": "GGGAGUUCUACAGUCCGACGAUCGUCCUGUGCUACACAUCGUAUGUACCGAAUCGGCCCCCCGGGCCCCCCGGGCCCCCCGGAAAGUAUUAUGUUACGCCGUUCGGAUCUGCAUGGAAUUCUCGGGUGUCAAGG", "log2 enrichment": -0.353}
{"Oligonucleotide": "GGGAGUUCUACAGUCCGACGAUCACCAUGCAGGUGGGCAUCUUUGGGAAGUGGGGCAAGGGGUGGAUAGGGAGGGGGGUAACACUUUGGGAACAGGUGGUCCCAGGUCGUUUCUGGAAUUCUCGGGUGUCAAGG", "log2 enrichment": 1.01}
{"Oligonucleotide": "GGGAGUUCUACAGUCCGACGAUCACCAUGCAGGUGGGCAUCUUUGGGAAGUGGGGCAAGGCGGGGAUAGGGAGGGGGGUAACACUUUGGGAACAGGUGGUCCCAGGUCGUUUCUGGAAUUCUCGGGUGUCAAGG", "log2 enrichment": 1.28}
{"Oligonucleotide": "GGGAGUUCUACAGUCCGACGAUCGCAGGAAGUAAAAACAAAUGAAAAUGCUUCGGAUAGUGGCAGGGGUGGGGGUUGCUAAGGAAAGGGUGGGAUGGGAGUGGGUAAAGAGUUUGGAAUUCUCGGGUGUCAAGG", "log2 enrichment": 0.894}
{"Oligonucleotide": "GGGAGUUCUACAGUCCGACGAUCACCAUGCAGGUGGGCAUCUUUGGGAAGUGGGGCAAGGGGGGGAUAGGGAGGGGGGUAACACUUUGGGAACAGGUGGUCCCAGGUCGUGUCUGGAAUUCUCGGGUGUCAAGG", "log2 enrichment": 1.23}
{"Oligonucleotide": "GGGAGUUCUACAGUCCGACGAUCCUCAAGUCCUGUGCUACACAUCGUAUGUACCGAAUCGGGUGGGAAAGGGAGGGAAAGUAUUAUGUUACGCCGUUCGGAUCUGCACUUCCAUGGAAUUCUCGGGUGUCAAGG", "log2 enrichment": 1.22}
{"Oligonucleotide": "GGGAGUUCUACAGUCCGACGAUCUCCUCAAGUCCUGUGCUACACAUCGUAUGUACCGAAUCGGAGGGAGGGGAGGAAAGUAUUAUGUUACGCCGUUCGGAUCUGCACUUCCAGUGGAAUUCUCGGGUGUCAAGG", "log2 enrichment": 0.373}
{"Oligonucleotide": "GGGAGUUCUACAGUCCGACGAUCCAAGUCCUGUGCUACACAUCGUAUGUACCGAAUCGGGUGGGAGGGUUUUUUUGGGAAAGUAUUAUGUUACGCCGUUCGGAUCUGCACUUCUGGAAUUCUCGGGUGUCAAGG", "log2 enrichment": 0.369}
{"data": "Series 2", "target": "ABI1, truncated, D143A, DHFR fusion (Arabidopsis thaliana)", "method": "DHFR PCA, deep sequencing", "sample": "yeast", "setting": "methotrexate growth selection, single substitutions", "together with": "(+)-ABA 2500 µM", "baseline": "wild-type fitted maximum", "reading": "higher = stronger binding", "starting sequence": "PYL1, truncated, DHFR fusion (Arabidopsis thaliana); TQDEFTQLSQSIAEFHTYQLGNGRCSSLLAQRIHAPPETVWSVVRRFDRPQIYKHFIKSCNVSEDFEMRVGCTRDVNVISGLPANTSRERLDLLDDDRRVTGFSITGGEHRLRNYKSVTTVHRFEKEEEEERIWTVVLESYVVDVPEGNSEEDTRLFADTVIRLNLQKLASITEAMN"}
{"Change": "V40Q", "relative binding score [%]": -18.9}
{"Change": "D153Y", "relative binding score [%]": 35.2}
{"Change": "T101P", "relative binding score [%]": -13.1}
{"Change": "F103V", "relative binding score [%]": 74.3}
{"Change": "L28N", "relative binding score [%]": 76.4}
{"Change": "R69L", "relative binding score [%]": 91.3}
{"Change": "L93A", "relative binding score [%]": 104}
{"Change": "D144N", "relative binding score [%]": 92.3}
{"Change": "S150M", "relative binding score [%]": 86.3}
{"Change": "G71D", "relative binding score [%]": 84.5}
{"Change": "A170C", "relative binding score [%]": 95.9}
{"Change": "V136L", "relative binding score [%]": 96.7}
{"Change": "Y18V", "relative binding score [%]": 97.4}
{"Change": "I12P", "relative binding score [%]": 59.5}
{"Change": "G23K", "relative binding score [%]": 98.8}
{"Change": "S27P", "relative binding score [%]": -2.49}
{"Change": "D75L", "relative binding score [%]": 94.7}
{"Change": "D95K", "relative binding score [%]": 85.4}
{"Change": "T17L", "relative binding score [%]": 88.9}
{"data": "Series 3", "target": "Hepatocyte nuclear factor 3-alpha (Foxa1, Mus musculus, UniProt P35582, residues 1-468, full length assumed)", "method": "EMSA with sequencing", "molecule type": "double-stranded DNA, one strand shown", "sample": "in vitro", "tested at": "10 and 20 nM", "setting": "whole designed probe, mean of two concentrations, ends assumed", "baseline": "negative control set to 0", "reading": "higher = stronger binding", "sequence of UniProt P35582 (whole entry, looked up)": "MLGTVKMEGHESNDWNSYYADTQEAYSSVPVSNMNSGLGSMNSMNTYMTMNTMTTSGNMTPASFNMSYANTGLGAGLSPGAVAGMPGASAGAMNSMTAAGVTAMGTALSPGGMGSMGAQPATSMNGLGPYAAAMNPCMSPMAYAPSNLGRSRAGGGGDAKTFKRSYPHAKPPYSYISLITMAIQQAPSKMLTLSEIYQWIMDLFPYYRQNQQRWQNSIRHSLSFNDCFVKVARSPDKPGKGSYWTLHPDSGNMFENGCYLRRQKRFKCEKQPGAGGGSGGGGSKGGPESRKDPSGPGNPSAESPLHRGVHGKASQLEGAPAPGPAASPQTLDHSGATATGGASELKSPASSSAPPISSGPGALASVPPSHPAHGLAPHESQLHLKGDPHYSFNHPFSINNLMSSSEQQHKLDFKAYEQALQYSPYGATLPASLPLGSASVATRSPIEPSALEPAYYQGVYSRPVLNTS"}
{"Oligonucleotide": "GTGAGCGGTGCCCATTGATGGGGAACAGAGGTTCTGCCTTATCAGAGTCCCTGACCCACAGTGAGAAATTAATACACATATTTTTGAATAAATTTTGAATAAGTAACTGGGGATTTAAGTAATCTAGAAATTACCCTATAGTGAGAGAAGAGTTTTAACATGTGGTGAGTGGTACAAAGTAGCACACCCAAGGTCGTGGGTTAATGACTTCCTTCCTTGTTTCACTGGGATCGTGGGGAC", "normalised bound fraction": "-0.0594 ratio"}
{"Oligonucleotide": "GTGAGCGGTGCCCATTGATGGGGAACGAGAGTCTGTGAATAGGTGCCTACCTCCATCCCGCACTGGGGGCATGAGAGGAGCAGGAACCTTGCATTAGACACAAAGGGTACCCAAGCCAAAATAAACATCCATAAAGGGCCCCGCCCTGAGGTCCTTGGCATGCTACAGAATAACCTGTTCCAAGCCATGTGGGCAAGACTAAAGCGATACCCTCCCAAGTTTCACTGGGATCGTGGGGAC", "normalised bound fraction": "0.232 ratio"}
{"Oligonucleotide": "GTGAGCGGTGCCCATTGATGGGGAACGTGGGTAACTGAGAGAAAGCCATAAAGGTAAAGTGGCATGTTAATCACATCATATCGATGATACATACTATTCATATGATTTATGATTATTGATGTTGGCCTTGATGACCTTGCTGAGATAGTATTTGTCAGGTTTCTCCACTGTAAAACTCCCCCATTTCTATATCGTACTCTTTGAAGGAAGTGACAATGTTTTCACTGGGATCGTGGGGAC", "normalised bound fraction": "-0.0313 ratio"}
{"Oligonucleotide": "GTGAGCGGTGCCCATTGATGGGGAACGCAAAACTCCTACTGTTGATGGCTGAATCCTATCAGGAAATTTTGATTTTACTGAGACAAAGTGCCTGCTACAAAGGACTCAGAAGTCTACTAAGTAATCTGGAAACTGGGACAGAATTCAGTCAAGAACTTAGACAGCTCATTGGCCTTTTAAGCCCAACGGTCTATCAGGAAGTAGAAAAGCAGAAACTACTTTCACTGGGATCGTGGGGAC", "normalised bound fraction": "-0.0757 ratio"}
{"data": "Series 4", "target": "CEBPD, bZIP domain (human)", "method": "DHFR protein complementation", "sample": "yeast", "setting": "single substitutions, most at no-binding floor", "baseline": "wild-type JUN-FOS pair", "reading": "higher = stronger binding", "starting sequence": "JUN, bZIP domain (human); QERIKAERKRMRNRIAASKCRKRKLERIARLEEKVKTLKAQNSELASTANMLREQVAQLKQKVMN; partner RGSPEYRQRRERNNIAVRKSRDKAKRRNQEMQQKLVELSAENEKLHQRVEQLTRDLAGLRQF"}
{"Change": "L45H", "binding fitness": "-1.51 natural log"}
{"Change": "K36G", "binding fitness": "-1.42 natural log"}
{"Change": "A49D", "binding fitness": "-1.47 natural log"}
{"Change": "K39Y", "binding fitness": "-1.42 natural log"}
{"Change": "E32F", "binding fitness": "-1.49 natural log"}
{"Change": "A29W", "binding fitness": "-1.36 natural log"}
{"Change": "T37A", "binding fitness": "-1.34 natural log"}
{"Change": "I28T", "binding fitness": "-1.32 natural log"}
{"Change": "A49M", "binding fitness": "-1.39 natural log"}
{"Change": "K34L", "binding fitness": "-1.29 natural log"}
{"Change": "E44I", "binding fitness": "-1.35 natural log"}
{"Change": "Q58R", "binding fitness": "-1.42 natural log"}
{"Change": "M51I", "binding fitness": "-1.37 natural log"}
{"Change": "E54A", "binding fitness": "-1.32 natural log"}
{"Change": "V35Y", "binding fitness": "-1.51 natural log"}
{"data": "Series 5", "target": "CCND1, cyclin fold, Cln2 fusion (human)", "method": "yeast growth competition, sequencing", "sample": "yeast", "setting": "strong parent motif", "baseline": "not given", "reading": "higher = stronger binding", "starting sequence": "CDKN1A docking peptide (human); SKACRRLFGPVDS; partner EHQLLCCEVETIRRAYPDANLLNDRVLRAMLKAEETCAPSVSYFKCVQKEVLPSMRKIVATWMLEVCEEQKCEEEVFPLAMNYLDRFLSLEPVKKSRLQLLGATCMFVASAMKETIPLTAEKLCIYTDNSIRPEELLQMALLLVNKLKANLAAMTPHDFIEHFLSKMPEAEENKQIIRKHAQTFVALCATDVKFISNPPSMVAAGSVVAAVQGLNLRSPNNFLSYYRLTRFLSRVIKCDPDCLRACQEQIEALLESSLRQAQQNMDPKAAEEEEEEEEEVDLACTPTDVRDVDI"}
{"Change": "R5A L7A", "normalised enrichment score": -0.0502}
{"Change": "F8C", "normalised enrichment score": 0.197}
{"Change": "P10M", "normalised enrichment score": 1.05}
{"Change": "R6S", "normalised enrichment score": 0.887}
{"Change": "C4R", "normalised enrichment score": 1.05}
{"Change": "L7P", "normalised enrichment score": -0.123}
{"Change": "P10D", "normalised enrichment score": 4.12}
{"Change": "A3M", "normalised enrichment score": 0.568}
{"Change": "G9I", "normalised enrichment score": 2.38}
{"Change": "K2E", "normalised enrichment score": 1.65}
{"Change": "D12F", "normalised enrichment score": 1.23}
{"Change": "F8K", "normalised enrichment score": -0.0401}
{"Change": "D12C", "normalised enrichment score": 1.41}
{"Change": "P10E", "normalised enrichment score": 3.91}
{"note": "For quick reference, copied from above (series 5):"}
{"Change": "F8C", "normalised enrichment score": 0.197}
{"Change": "P10M", "normalised enrichment score": 1.05}
{"Change": "R6S", "normalised enrichment score": 0.887}
{"Change": "C4R", "normalised enrichment score": 1.05}
{"Change": "L7P", "normalised enrichment score": -0.123}
